Assay results pooled from the literature.
Numbered parts are unrelated; each lists some results of a single study. Changes are numbered by the printed parent chain.

Block 1 — technique: RNA Bind-n-Seq; molecule type: RNA; medium: in vitro; concentration: 365 nM; reference: no-protein control; reading: higher = stronger binding
Target: RNA binding protein fox-1 homolog 2, RRM domain, GST-SBP tag (RBFOX2, Homo sapiens, UniProt O43251-10, residues 100-194)
Setting: natural RNA segment, single round, ends assumed
All sequences stand within: GGGAGUUCUACAGUCCGACGAUC … UGGAAUUCUCGGGUGCCAA
Residues (chain): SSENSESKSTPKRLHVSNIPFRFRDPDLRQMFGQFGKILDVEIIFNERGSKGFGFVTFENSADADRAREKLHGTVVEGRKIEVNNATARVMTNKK
| Strand | RBNS enrichment (R) |
| --- | --- |
| GCCUGAGAGCUGUACCUAUCAGAACCUUGGGUGCUAAGCUGUGCUGAGGGGGAAGACGUGGGACCGGAUGGCCCGUCUGAGGUUUGUGGGGUCACUGUGCAAGCUUCCUU | 0.307 |
| AAGGCCAAGUACCCCAACUCUCCCCGACGCUGCUGAGCCCUUCCCUCCCCUAAUCUGAGAAGUCAGCCUCUUGGCUCCUCAGGCCACCAUUUAGGCCUGACUGGGGUAAG | 0.316 |
| UCUAACUCUUCCUCUACAUCUUACUGUUCUGCCCGGGAUUCGUAUUAUAAUGACAGAAGAAAUGUUGUUUAGACUAUUAUUUUUGUUCGACUCUAAAAGAUUUGCCAAAU | 0.389 |
| UGUGUGUGUUUUGACACAAAAACAAUGCAAGCAUGUGUCAUCCAUAUUUCUCUGCAUCUUCUCUUGGAGUGAGGGAGGCUACCUGGAGGGGAUCAGCCCACUGACAGACC | 2.16 |
| CUGGCAGCGCCUCCCGCCGCCUCGGGCCGCCUCCUCCAGACUCGAGAGGGCUGAGCCCCUCCUCUCCUCGUCCGGCCUGCAGCCCAGAACGGGCCUCCCCGGGGGUCCCC | 0.305 |
| AUUCGAAUGACUUCAUUUUUCCCACCCUGUGGGUCAGUUUGUGACUUUUGGAAUUUUCCACAGGUACCUGUACAACUUGAUAUUUGAAAACAGGAUUCAUCACCAUAUAU | 0.325 |
| AGCUGUGCGGCAUGGGCUAAGUCACUCUGCCCUUCGGAGCCUCUGGAAGCUUAGGGCACAUUGGUUCCAGCCUAGCCAGUUUCUCACCCUGGGUUGGGGUCCCCCAGCAU | 0.46 |
| GCUGCCUGUGGUCUCCUUCCGGCUGUGGCUGACAGUGGCUCUGGCCAGGGUUGCUUGGAGAAGGCUCAGUGUGCCUGGGACAGGGCUUACCACCUGCCACCAAGGUUUCC | 0.513 |

Block 2 — target: CCND1, cyclin fold, Cln2 fusion (human); technique: yeast growth competition, sequencing; medium: yeast; setting: weak parent motif; reference: not given; reading: higher = stronger binding
Starting sequence: WEE1 docking peptide (human); HKTFRKLRLFDTP
| Change | normalised enrichment score |
| --- | --- |
| L7F | 0.11 |
| K2C | 0.106 |
| P13M | 0.876 |
| R5C | -0.3 |
| T3H | 0.67 |
| F4A | 0.297 |
| T12N | 0.837 |
| K2V | -0.0725 |
| T12F | 0.0126 |
| D11H | -0.719 |
| R5Y | -0.181 |
| R5H | 0.934 |
| K2I | 0.186 |
| K6I | 0.388 |
| R8F | -0.06 |
| P13S | -0.26 |
| F10H | -0.586 |

Block 3 — technique: aptamer microarray, sandwich; molecule type: DNA with 2'F-ANA; medium: in vitro; concentration: 200 nM; with: Cy3 exosite-II aptamer, 400 nM; reading: higher = stronger binding; strand: GGTTGGTGTGGTTGG
Target: Prothrombin, mature alpha-thrombin (F2, Homo sapiens, UniProt P00734)
Setting: whole 15-mer aptamer, many near background
| Modification | mean fluorescence intensity [a.u.] |
| --- | --- |
| 2'F-ANA at 6 11 15 | 391 |
| 2'F-ANA at 1 3 5 6 9 11 12 | 98.9 |
| 2'F-ANA at 1 5 6 8 11 15 | 54.4 |
| 2'F-ANA at 4 6 7 10 11 12 15 | 122 |
| 2'F-ANA at 1 2 4 5 7 9 12 14 15 | 62.1 |
| 2'F-ANA at 1 3 5 7 11 12 14 | 48.4 |
| 2'F-ANA at 2 7 8 9 10 11 13 14 | 111 |
| 2'F-ANA at 4 6 7 11 12 13 14 15 | 87 |
| 2'F-ANA at 1 4 7 9 12 13 15 | 166 |
| 2'F-ANA at 3 4 5 6 7 8 9 14 15 | 49.7 |
| 2'F-ANA at 4 5 11 12 13 15 | 73.6 |
| 2'F-ANA at 1 2 5 8 11 14 | 52.9 |
| 2'F-ANA at 6 9 12 15 | 677 |
| 2'F-ANA at 1 3 5 6 9 10 15 | 49.9 |
| 2'F-ANA at 1 2 3 4 9 11 13 14 | 53.5 |
| 2'F-ANA at 2 3 6 11 12 13 | 772 |
| 2'F-ANA at 2 6 10 11 15 | 104 |
| 2'F-ANA at 4 5 8 9 10 14 15 | 45.1 |
| 2'F-ANA at 1 8 | 262 |
| 2'F-ANA at 1 2 3 5 6 11 12 13 | 85.9 |

Block 4 — technique: DHFR PCA, deep sequencing; medium: yeast; with: (+)-ABA 0 µM; reference: wild-type fitted maximum; reading: higher = stronger binding
Target: ABI1, truncated, D143A, DHFR fusion (Arabidopsis thaliana)
Setting: methotrexate growth selection, single substitutions
Starting sequence: PYL1, truncated, DHFR fusion (Arabidopsis thaliana); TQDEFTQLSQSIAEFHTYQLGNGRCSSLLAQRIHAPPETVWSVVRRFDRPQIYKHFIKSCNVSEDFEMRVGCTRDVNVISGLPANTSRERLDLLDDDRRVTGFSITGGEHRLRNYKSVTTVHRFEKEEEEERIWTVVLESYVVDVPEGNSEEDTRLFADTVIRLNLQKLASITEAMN
| Change | relative binding score [%] |
| --- | --- |
| R99Y | 62.6 |
| L156V | 7.26 |
| V143W | -8.22 |
| S9N | 14.6 |
| R24K | 44.1 |
| R74T | -3.34 |
| R24L | 4.83 |
| N22K | 48.3 |
| L28W | -4.38 |
| L112I | 3.05 |
| N61D | 30.8 |
| T86H | 12.2 |
| K116S | 13.7 |
| F103N | -2.3 |
| P83W | 7.12 |
| L8E | -0.784 |
| V43E | 2.1 |
| M176W | 3.8 |
| R90E | 1.42 |
| R32M | 21.6 |
| N149T | 50.3 |
| D144A | 0.0272 |
| T135D | -12 |
| E4A | 8.03 |
| T6M | 33.6 |

Repeated from above (block 3):
| Modification | mean fluorescence intensity [a.u.] |
| --- | --- |
| 2'F-ANA at 1 2 3 4 9 11 13 14 | 53.5 |
| 2'F-ANA at 3 4 5 6 7 8 9 14 15 | 49.7 |
| 2'F-ANA at 2 7 8 9 10 11 13 14 | 111 |
| 2'F-ANA at 4 5 8 9 10 14 15 | 45.1 |
| 2'F-ANA at 6 9 12 15 | 677 |
| 2'F-ANA at 1 2 5 8 11 14 | 52.9 |
